# Assay results from different studies.
# A part holds a random share of what one study measured. Changes are numbered by the printed parent chain.

# Block 1 — target: CCND1, cyclin fold, Cln2 fusion (human); method: yeast growth competition, sequencing; matrix: yeast; notes: weak parent motif; baseline: not given; reading: higher = stronger binding
# Starting sequence: CDC25A docking peptide (human); PPHRRRLLFACSP; partner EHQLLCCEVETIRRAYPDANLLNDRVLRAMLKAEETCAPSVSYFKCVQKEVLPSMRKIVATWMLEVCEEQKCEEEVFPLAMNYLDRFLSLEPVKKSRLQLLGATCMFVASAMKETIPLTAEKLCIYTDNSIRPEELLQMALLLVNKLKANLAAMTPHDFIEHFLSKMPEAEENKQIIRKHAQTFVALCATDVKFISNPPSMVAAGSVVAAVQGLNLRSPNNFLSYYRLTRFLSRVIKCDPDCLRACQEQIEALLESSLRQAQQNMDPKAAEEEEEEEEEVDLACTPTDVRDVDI
Change,normalised enrichment score
YPHRRRLLFACSP [P1Y],0.252
PMHRRRLLFACSP [P2M],0.453
PPHRERLLFACSP [R5E],-0.107
PPHRLRLLFACSP [R5L],0.796
PPHRQRLLFACSP [R5Q],0.3
PPHRRRLLFACQP [S12Q],-0.386
PIHRRRLLFACSP [P2I],0.102
PPHRRRLLFAKSP [C11K],-0.399

# Block 2 — method: protein-binding microarray; molecule type: double-stranded DNA, one strand shown; matrix: in vitro; tested at: not given; reading: higher = stronger binding
# Target: Protein max, full length (MAX, Homo sapiens, UniProt P61244-2, residues 1-151)
# Notes: k-mer, scored over probes, only values ≥0.25
Sequence,E-score
GCATGACC,0.393
ACGTGAAA,0.359
CATCACAC,0.298
CGTGCCCA,0.291
CCGTGGTC,0.253
CGTGCTCA,0.439
CGTGTTCA,0.416
AGCGCATG,0.427

# Block 3 — method: universal PBM; molecule type: double-stranded DNA, one strand shown; matrix: in vitro; tested at: not given; reading: higher = stronger binding
# Target: Sal-like protein 4, full length isoform B (SALL4, Homo sapiens, UniProt Q9UJQ4-2, residues 1-616)
# Notes: 8-mer, flanks averaged, mean of replicates
Sequence,E-score
CCAGGTAC,-0.203
ACAGTAGC,-0.077
CATATGCG,0.14
ATTATCCC,0.177
CAGCTCGG,-0.298
GTTTTCAA,0.214
AATTGTCC,0.123
AGACCCAG,-0.274
AACACCCG,-0.203

# Further values, each from its own experiment
Molecule,target,test,system,setting,scale,quantity,value
"PhoQ, residues 284 288 289 292 302 303 AANNSF","PhoP, residues 12 14 15 18 19 NHFIF (Escherichia coli, UniProt P23836)","Sort-seq, refers to: YFP reporter",E. coli,"PhoQ-PhoP variant library, together with: 10 µM Mg2+","baseline: high Mg2+ state, higher = stronger signaling",fold induction,13.9
